# Assay results of several laboratories.
# Compare with care: the assays were run in different laboratories.
# Partner: itself
# B1: RPRD1A (Homo sapiens, UniProt Q96P16); chain MSAFSEAALEKKLSELSNSQQSVQTLSLWLIHHRKHSRPIVTVWERELRKAKPNRKLTFLYLANDVIQNSKRKGPEFTKDFAPVIVEAFKHVSSETDESCKKHLGRVLSIWEERSVYENDVLEQLKQALYGDKKPRKRTYEQIKVDENENCSSLGSPSEPPQTLDLVRALQDLENAASGDAAVHQRIASLPVEVQEVSLLDKITDKESGERLSKMVEDACMLLADYNGRLAAEIDDRKQLTRMLADFLRCQKEALAEKEHKLEEYKRKLARVSLVRKELRSRIQSLPDLSRLPNVTGSHMHLPFAGDIYSED
# B2: ADAR1 127-end 127-1226 G1007R (human, UniProt P55265); sequence looked up; chain SSHFQELSIYQDQEQRILKFLEELGEGKATTAHDLSGKLGTPKKEINRVLYSLAKKGKLQKEAGTPPLWKIAVSTQAWNQHSGVVRPDGHSQGAPNSDPSLEPEDRNSTSVSEDLLEPFIAVSAQAWNQHSGVVRPDSHSQGSPNSDPGLEPEDSNSTSALEDPLEFLDMAEIKEKICDYLFNVSDSSALNLAKNIGLTKARDINAVLIDMERQGDVYRQGTTPPIWHLTDKKRERMQIKRNTNSVPETAPAAIPETKRNAEFLTCNIPTSNASNNMVTTEKVENGQEPVIKLENRQEARPEPARLKPPVHYNGPSKAGYVDFENGQWATDDIPDDLNSIRAAPGEFRAIMEMPSFYSHGLPRCSPYKKLTECQLKNPISGLLEYAQFASQTCEFNMIEQSGPPHEPRFKFQVVINGREFPPAEAGSKKVAKQDAAMKAMTILLEEAKAKDSGKSEESSHYSTEKESEKTAESQTPTPSATSFFSGKSPVTTLLECMHKLGNSCEFRLLSKEGPAHEPKFQYCVAVGAQTFPSVSAPSKKVAKQMAAEEAMKALHGEATNSMASDNQPEGMISESLDNLESMMPNKVRKIGELVRYLNTNPVGGLLEYARSHGFAAEFKLVDQSGPPHEPKFVYQAKVGGRWFPAVCAHSKKQGKQEAADAALRVLIGENEKAERMGFTEVTPVTGASLRRTMLLLSRSPEAQPKTLPLTGSTFHDQIAMLSHRCFNTLTNSFQPSLLGRKILAAIIMKKDSEDMGVVVSLGTGNRCVKGDSLSLKGETVNDCHAEIISRRGFIRFLYSELMKYNSQTAKDSIFEPAKGGEKLQIKKTVSFHLYISTAPCGDGALFDKSCSDRAMESTESRHYPVFENPKQGKLRTKVENREGTIPVESSDIVPTWDGIRLGERLRTMSCSDKILRWNVLGLQGALLTHFLQPIYLKSVTLGYLFSQGHLTRAICCRVTRDGSAFEDGLRHPFIVNHPKVGRVSIYDSKRQSGKTKETSVNWCLADGYDLEILDGTRGTVDGPRNELSRVSKKNIFLLFKKLCSFRYRRDLLRLSYGEAKKAARDYETAKNYFKKGLKDMGYGNWISKPQEEKNFYLCPV
# B3: TBK1 D135N/H459E/N474A (Homo sapiens, UniProt Q9UHD2); sequence looked up; chain MQSTSNHLWLLSDILGQGATANVFRGRHKKTGDLFAIKVFNNISFLRPVDVQMREFEVLKKLNHKNIVKLFAIEEETTTRHKVLIMEFCPCGSLYTVLEEPSNAYGLPESEFLIVLRDVVGGMNHLRENGIVHRNIKPGNIMRVIGEDGQSVYKLTDFGAARELEDDEQFVSLYGTEEYLHPDMYERAVLRKDHQKKYGATVDLWSIGVTFYHAATGSLPFRPFEGPRRNKEVMYKIITGKPSGAISGVQKAENGPIDWSGDMPVSCSLSRGLQVLLTPVLANILEADQEKCWGFDQFFAETSDILHRMVIHVFSLQQMTAHKIYIHSYNTATIFHELVYKQTKIISSNQELIYEGRRLVLEPGRLAQHFPKTTEENPIFVVSREPLNTIGLIYEKISLPKVHPRYDLDGDASMAKAITGVVCYACRIASTLLLYQELMRKGIRWLIELIKDDYNETVEKKTEVVITLDFCIRAIEKTVKVYEKLMKINLEAAELGEISDIHTKLLRLSSSQGTIETSLQDIDSRLSPGGSLADAWAHQEGTHPKDRNVEKLQVLLNCMTEIYYQFKKDKAERRLAYNEEQIHKFDKQKLYYHATKAMTHFTDECVKKYEAFLNKSEEWIRKMLHLRKQLLSLTNQCFDIEEEVSKYQEYTNELQETLPQKMFTASSGIKHTMTPIYPSSNTLVEMTLGMKKLKEEMEGVVKELAENNHILERFGSLTMDGGLRNVDCL
# B4: MIB1 417-1006 (Homo sapiens, UniProt Q86YT6); sequence looked up; chain QLLKKLFETQESGDLNEELVKAAANGDVAKVEDLLKRPDVDVNGQCAGHTAMQAASQNGHVDILKLLLKQNVDVEAEDKDGDRAVHHAAFGDEGAVIEVLHRGSADLNARNKRRQTPLHIAVNKGHLQVVKTLLDFGCHPSLQDSEGDTPLHDAISKKRDDILAVLLEAGADVTITNNNGFNALHHAALRGNPSAMRVLLSKLPRPWIVDEKKDDGYTALHLAALNNHVEVAELLVHQGNANLDIQNVNQQTALHLAVERQHTQIVRLLVRAGAKLDIQDKDGDTPLHEALRHHTLSQLRQLQDMQDVGKVDAAWEPSKNTLIMGLGTQGAEKKSAASIACFLAANGADLSIRNKKGQSPLDLCPDPNLCKALAKCHKEKVSGQVGSRSPSMISNDSETLEECMVCSDMKRDTLFGPCGHIATCSLCSPRVKKCLICKEQVQSRTKIEECVVCSDKKAAVLFQPCGHMCACENCANLMKKCVQCRAVVERRVPFIMCCGGKSSEDATDDISSGNIPVLQKDKDNTNVNADVQKLQQQLQDIKEQTMCPVCLDRLKNMIFLCGHGTCQLCGDRMSECPICRKAIERRILLY
# B5: HOGA1 26-327 (Homo sapiens, UniProt Q86XE5); sequence looked up; chain ASGEGKKVDIAGIYPPVTTPFTATAEVDYGKLEENLHKLGTFPFRGFVVQGSNGEFPFLTSSERLEVVSRVRQAMPKNRLLLAGSGCESTQATVEMTVSMAQVGADAAMVVTPCYYRGRMSSAALIHHYTKVADLSPIPVVLYSVPANTGLDLPVDAVVTLSQHPNIVGMKDSGGDVTRIGLIVHKTRKQDFQVLAGSAGFLMASYALGAVGGVCALANVLGAQVCQLERLCCTGQWEDAQKLQHRLIEPNAAVTRRFGIPGLKKIMDWFGYYGGPCRAPLQELSPAEEEALRMDFTSNGWL
# B6: dnaD (Bacillus subtilis, UniProt P39787); chain GSHMKKQQFIDMQEQGTSTIPNLLLTHYKQLGLNETELILLLKIKMHLEKGSYFPTPNQLQEGMSISVEECTNRLRMFIQKGFLFIEECEDQNGIKFEKYSLQPLWGKLYEYIQLAQNQTQERKAEGEQKSLYTIFEEEFARPLSPLECETLAIWQDQDQHDAQLIKHALKEAVLSGKLSFRYIDRILFEWKKNGLKTVEQAKIHSQKFRRVQAKQNEPQKEYKRQVPFYNWLEQ
# B7: yjoB 159-423 (Bacillus subtilis, UniProt O34703); sequence looked up; chain RKVTVFTDGDGGTSREQEAIVREVQRSQVIMNPLLKKEIYRSIDQFFHSDKSFYQTYDIPYKRGILLYGPPGNGKTTLVKSIAGSIDAPVAYWQITEFTSSETIEEVFQAARRLAPAVLVIEDIDSMPEDVRSFFLNTLDGATSKEGLFLIGTTNYPEEIDPGLMNRAGRFDRAYEIGLPDEELRLEYMKMRGFGIFLSEGEIKNAAKLTEGFSFAQLGELYVSSALQWHQEGNHHIETMVKDMTGEQRKSQRGSWMERNKVGFH
# B8: SERPINA1 25-314 C232S (Homo sapiens, UniProt P01009); sequence looked up; chain EDPQGDAAQKTDTSHHDQDHPTFNKITPNLAEFAFSLYRQLAHQSNSTNIFFSPVSIATAFAMLSLGTKADTHDEILEGLNFNLTEIPEAQIHEGFQELLRTLNQPDSQLQLTTGNGLFLSEGLKLVDKFLEDVKKLYHSEAFTVNFGDTEEAKKQINDYVEKGTQGKIVDLVKELDRDTVFALVNYIFFKGKWERPFEVKDTEEEDFHVDQVTTVKVPMMKRLGMFNIQHSKKLSSWVLLMKYLGNATAIFFLPDEGKLQHLENELTHDIITKFLENEDRRSASLHLPK
# B9: treS (Deinococcus radiodurans); chain MTQAHPEWYKSAVFYELSVRTFQDGNGDGKGDFPGLTSRLDYLKNLGVDCLWLLPWFPSPLRDDGYDVADYRGIHPDLGTLDDFKVFLREAHARGLRVIGDLVTNHTSSDHPWFQAARRGPTLPDGSPNEYHDYYVWSDEGKEYADTRIIFTDTEVSNWTLDEQAGKYYWHRFFASQPDLNYDNPKVVEELHGAARFWLDLGLDGFRVDAVPYLIEREGTSCENLPETHEILKGFRAMVDREYPGRLLLAEANQWPEEVVEYFGTEAEPEFHMCFNFPVMPRLYMSLKREDTSSIREIMGRLPKIPSFGQWCTFLRNHDELTLEMVTDDERAFMYAAYAPDARMKINVGIRRRLAPLLDNDRRRIELLNTVLLALPGSPILYYGDEIGMGDDLGLPDRNGVRTPMQWNAGTSGGFSTAQPSDCFFPPIQDPVYGFGRVNVQSQLQDPSSLLKWTARQLELRRAHPAFAHGDLTFIETGNPAILAFTRQYDGETLLIVSNFAGNAQAGLLDLAPFVGRAPVTLSGASPLPVVTGNGQYPVVMGKYDYYWLRLNLEHHHHHH
# B10: RBKS K54N (Homo sapiens, UniProt Q9H477); sequence looked up; chain MAASGEPQRQWQEEVAAVVVVGSCMTDLVSLTSRLPKTGETIHGHKFFIGFGGNGANQCVQAARLGAMTSMVCKVGKDSFGNDYIENLKQNDISTEFTYQTKDAATGTASIIVNNEGQNIIVIVAGANLLLNTEDLRAAANVISRAKVMVCQLEITPATSLEALTMARRSGVKTLFNPAPAIADLDPQFYTLSDVFCCNESEAEILTGLTVGSAADAGEAALVLLKRGCQVVIITLGAEGCVVLSQTEPEPKHIPTEKVKAVDTTGAGDSFVGALAFYLAYYPNLSLEDMLNRSNFIAAVSVQAAGTQSSYPYKKDLPLTLF
# B11: CEBPB 257-336 (Homo sapiens, UniProt P17676); sequence looked up; chain SQVKSKAKKTVDKHSDEYKIRRERNNIAVRKSRDKAKMRNLETQHKVLELTAENERLQKKVEQLSRELSTLRNLFKQLPE
# B12: comFB 1-98 (Bacillus subtilis, UniProt P39146); chain MLVNSKEIVMKELLDRYMDQLHMACTCQVCQNDVLALSLNKVSPSYVTDFKKIAYTKAELVDKQKNTAMLVILAESAAVVSESPSDLCQTKQEEAFIN
# B13: PCK1 S62A/T66A (Arabidopsis thaliana, UniProt Q9T074); sequence looked up; chain MSAGNGNATNGDGGFSFPKGPVMPKITTGAAKRGSGVCHDDSGPTVNATTIDELHSLQKKRAAPTAPINQNAAAAFAAVSEEERQKIQLQSISASLASLTRESGPKVVRGDPAEKKTDGSTTPAYAHGQHHSIFSPATGAVSDSSLKFTHVLYNLSPAELYEQAIKYEKGSFITSNGALATLSGAKTGRAPRDKRVVRDATTEDELWWGKGSPNIEMDEHTFMVNRERAVDYLNSLEKVFVNDQYLNWDPENRIKVRIVSARAYHSLFMHNMCIRPTQEELESFGTPDFTIYNAGQFPCNRYTHYMTSSTSVDLNLARREMVILGTQYAGEMKKGLFSVMHYLMPKRRILSLHSGCNMGKDGDVALFFGLSGTGKTTLSTDHNRYLIGDDEHCWTETGVSNIEGGCYAKCVDLSREKEPDIWNAIKFGTVLENVVFDEHTREVDYSDKSVTENTRAAYPIEFIPNAKIPCVGPHPTNVILLACDAFGVLPPVSKLNLAQTMYHFISGYTALVAGTEDGIKEPTATFSACFGAAFIMLHPTKYAAMLAEKMKSQGATGWLVNTGWSGGSYGVGNRIKLAYTRKIIDAIHSGSLLKANYKKTEIFGFEIPTEIEGIPSEILDPVNSWSDKKAHKDTLVKLGGLFKKNFEVFANHKIGVDGKLTEEILAAGPIF
# B14: aqpZ 1-231 W206A (Escherichia coli, UniProt P60844); chain MFRKLAAECFGTFWLVFGGCGSAVLAAGFPELGIGFAGVALAFGLTVLTMAFAVGHISGGHFNPAVTIGLWAGGRFPAKEVVGYVIAQVVGGIVAAALLYLIASGKTGFDAAASGFASNGYGEHSPGGYSMLSALVVELVLSAGFLLVIHGATDKFAPAGFAPIAIGLALTLIHLISIPVTNTSVNPARSTAVAIFQGGWALEQLAFFWVVPIVGGIIGGLIYRTLLEKRD
Molecule,technique,cells,temperature,notes,subunits per oligomer
B1 (RPRD1A),AUC,,4 °C,,2
B2 (ADAR1 127-end 127-1226 G1007R),SEC,,,,2
B3 (TBK1 D135N/H459E/N474A),SEC-MALS,,,,2
HPCD (UniProt Q45135),crystal structure,,,,4
B4 (MIB1 417-1006),SEC-MALS,,,,2
B5 (HOGA1 26-327),SEC,,,wild type,4
B6 (dnaD),SEC,,,,2
"TMEM94 (Homo sapiens, UniProt Q12767-3)",cross-linking,HEK293,,"in cells, not purified",3
B7 (yjoB 159-423),SEC,,,,6
B8 (SERPINA1 25-314 C232S),AUC,,,velocity sedimentation,2
B9 (treS),SAXS,,,,2
B10 (RBKS K54N),mass photometry,,,,2
B11 (CEBPB 257-336),X-ray crystallography,,,,2
B12 (comFB 1-98),mass photometry,,,without c-di-GMP,4
B13 (PCK1 S62A/T66A),native PAGE,,,,6
B14 (aqpZ 1-231 W206A),native MS,,,,4

# Excerpt of the above:
Molecule,technique,cells,temperature,notes,subunits per oligomer
"TMEM94 (Homo sapiens, UniProt Q12767-3)",cross-linking,HEK293,,"in cells, not purified",3
B7 (yjoB 159-423),SEC,,,,6
B8 (SERPINA1 25-314 C232S),AUC,,,velocity sedimentation,2
